Measured values of several laboratories.
Each numbered part is a random draw from the data of one study; scales do not carry over between parts.

Sample 1
Target: RING finger protein unkempt homolog, zinc fingers 1-6, GST-SBP tag (UNK, Homo sapiens, UniProt Q9C0B0, residues 30-357)
Sequence of UniProt Q9C0B0 (30-357, looked up): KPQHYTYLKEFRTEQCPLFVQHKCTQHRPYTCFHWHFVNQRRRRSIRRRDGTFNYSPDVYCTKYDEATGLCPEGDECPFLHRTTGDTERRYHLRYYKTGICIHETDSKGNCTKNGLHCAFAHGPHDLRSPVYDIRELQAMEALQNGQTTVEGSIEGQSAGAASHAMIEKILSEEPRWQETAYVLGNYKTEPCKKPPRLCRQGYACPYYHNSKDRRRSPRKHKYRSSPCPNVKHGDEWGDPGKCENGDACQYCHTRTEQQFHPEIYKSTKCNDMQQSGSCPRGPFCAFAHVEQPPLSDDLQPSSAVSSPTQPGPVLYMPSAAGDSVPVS
Technique: RNA Bind-n-Seq
Molecule type: RNA
Sample: in vitro
Tested at: not given
Setting: RNA with constant flanks, human and mouse sites, ends assumed
Baseline: input RNA pool
Reading: higher = stronger binding
`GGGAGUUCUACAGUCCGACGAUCUAUUUAUAUUUAUUGACUCUUGAGUUGUUUUUGUAUAUUGGUUUUAUGAUGACGUACAAGUAGUUCUGUAUUUGAAAGUGCCUUUGCAGCUCAGAACCACAGCAACGAUCACAAAUGACUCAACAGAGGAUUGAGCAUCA` has a bound/input enrichment of 0.644 ratio.
`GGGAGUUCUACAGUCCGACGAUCGAUGUAGAAAUAAUCUUUAAUGAACGUGGCUCUAAGGGAUUCGGGUUCGUAACUUUCGAGAAUAGUGCUGAUGCAGACAGGGCCAGGGAGAAAUUACACGGCACCGUGGUAGAGGGCCGUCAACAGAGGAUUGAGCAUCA` gave a bound/input enrichment of 1.46 ratio.
For `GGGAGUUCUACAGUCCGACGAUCACUAUGCUGGUGCACGGUCCUGUGACCAGUGCCCUCCGCCCCUUCUUUACACCACUGUCCUACCUACAGGAAUUUAAUAUUUUUAAAGUUUUACAAUACUGUAUAUUCAAAGAUUUGUUUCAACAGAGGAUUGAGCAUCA`, the bound/input enrichment was 1.72 ratio.
With `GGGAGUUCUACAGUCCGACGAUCCAGAAGGACCUCACGGAGUCUAAGGGAAAAAUAGUCCAGCUGGAGGGAAAGCUUGUUUCAAUAGAGAAAGAAAAGAUCGAUGAAAAAUGUGAAACAGAAAAACUCUUAGAAUACAUCCAACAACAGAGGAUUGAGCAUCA` the bound/input enrichment was 0.387 ratio.
With `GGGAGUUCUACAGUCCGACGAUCCCACCACCAGUGGUUCUCCAGAGCCUAAAUGGAAUACUUAAAACACACUGCUGAGUUGUAUAGUUUCUUUUUCUUUUAUAUAUAUAUAUAUGUGUAUAUGUAACAAAGCAUUAUUCAGGUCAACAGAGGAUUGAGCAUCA` the bound/input enrichment was 0.588 ratio.
`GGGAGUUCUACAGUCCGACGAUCGUAGAAUCUUGUUUGUAGGCUGAAUUUUAAUCUGUAUUUAUUGUCUUUUGUAUCUCAGAAAUUAGAAACUUGCUACAGACUUACCCGUAAUAUUUGUCAAGAUCAUAGCUGACUUUAAAACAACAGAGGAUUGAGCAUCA` has a bound/input enrichment of 1.13 ratio.
`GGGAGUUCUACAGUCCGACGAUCGAGGUCCUGAGACAGGAAGACAAAGCUGAAGCCAUGUCCGGCCAUAUUGAUCAGUUUCUGAUAGCCACUUUUAUGCAGCUAAGACUCAUCUACAACACACACAUGGCAGAUGAGAAAUUGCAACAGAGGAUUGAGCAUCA` has a bound/input enrichment of 0.317 ratio.
With `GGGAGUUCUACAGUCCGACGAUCCAUAGAGAAAUAAUUUCAUCCCCCAACUGUAGUAAUUGUUACAAUUUUAUAUAAAAAAUUAAUAGUAUAUGCAGAAAAUGACCUGAAUUCCAUCCGCAACAAGGACACAUGGCUUUACAUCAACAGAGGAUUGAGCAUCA` the bound/input enrichment was 58 ratio.

Sample 2
Target: RNA binding protein fox-1 homolog 2, RRM domain, GST-SBP tag (RBFOX2, Homo sapiens, UniProt O43251-10, residues 100-194)
Technique: RNA Bind-n-Seq
Molecule type: RNA
Sample: in vitro
Tested at: 365 nM
Setting: natural RNA segment, single round, ends assumed
Baseline: no-protein control
Reading: higher = stronger binding
Construct (chain): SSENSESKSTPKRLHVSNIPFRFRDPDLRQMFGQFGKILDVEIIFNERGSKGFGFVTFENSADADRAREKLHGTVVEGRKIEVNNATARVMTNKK
`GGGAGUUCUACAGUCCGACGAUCAAUUUUUGUUUGAUAUAAGUUAGCUUGUUAGCAUAUGCCCUAGAGGGCCUCCAUCCCUGUAUUCUAAUGUUUUUACUCAAAGCUCUAGCCUUUAGGAUAGGUGAAUAUGUUGGAAUUCUCGGGUGCCAA` — result for “RBNS enrichment (R)”: 0.329.
`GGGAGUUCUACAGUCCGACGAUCAAAAAACAAGACCCUUCACACAGUUAGCUCAGGCCAUUUUAAGGACGAAGGCUCUGCUGGUCCUCCUGUGCUGGGAAUCUCUUUGAUGGCCUCUUGUGAAGCUCAUGAAAUGGAAUUCUCGGGUGCCAA`: “RBNS enrichment (R)” 0.263.
`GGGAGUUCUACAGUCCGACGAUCUUCUUUUGUCUUUUAGCUAAAGGAAAAGCAUUGGCGAUUUGUCUGAUUCUGGUUUUGAGUUACUCUUUGUUCAGUAAUGCACUUUAUUUUAUUGUCCAAAGAGAGUCAGAUGGAAUUCUCGGGUGCCAA` — result for “RBNS enrichment (R)”: 1.03.
`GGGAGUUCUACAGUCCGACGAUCAAAGGGAUAUAUAUGAGAAGUGAUUACUCCAAAGAAUAUUAAUCUUAAAAGAAAGCAGUAUAGAUGUCUUACCAUGAAAUACAUUACUCUAGGCUAAAAUUUCAACUGUUUGGAAUUCUCGGGUGCCAA`: “RBNS enrichment (R)” 0.552.
`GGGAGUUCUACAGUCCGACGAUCGAAUGGUCAUAAUGAGACAACAGCUAACACUGAAUGCUUGCUGUGUGUUUGGCACUCUGCUAGACGUUUUACUGGUAUUAACCGAUUUAAUCCUCACAAUAACGAAGUAUUGGAAUUCUCGGGUGCCAA` — result for “RBNS enrichment (R)”: 9.18.
`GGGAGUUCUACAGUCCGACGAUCAGUGUGCCUGUGUAUAUAACUCUGUAAAGACACUGAAAAUUAUACUAACUUAUUUAUGUUAAAAAGAGAUUUUUUUUUAAUCUAGACAAUAUACAAGCCAAAGUGGCAUGUGGAAUUCUCGGGUGCCAA` — result for “RBNS enrichment (R)”: 0.522.
`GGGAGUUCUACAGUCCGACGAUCGAUAAAACAUUAAAAUGAAAACCAGUUUUUCAGGAUGCAUAGGUAAGGAAUGAUUGCUAUAUUAUAUAUAAUUUUUAUGUGAAGCCUGUUUGACUAAUGUGUCUGGACUAUGGAAUUCUCGGGUGCCAA`: “RBNS enrichment (R)” 1.54.
Under “RBNS enrichment (R)”, `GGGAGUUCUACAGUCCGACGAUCUGCCCGUAGCCCCUUCCGACUCAGUGGGGCGAGCGCUCAACACGGAUCGCCCCCCCCUUCCCAGUUCUCCAUAUCAGGGUAGAAGAUCUAGGCACUACAUAUGUAAUUGGUGGAAUUCUCGGGUGCCAA` is recorded as 0.434.

Sample 3
Target: Sal-like protein 4, full length isoform B (SALL4, Homo sapiens, UniProt Q9UJQ4-2, residues 1-616)
Technique: universal PBM
Molecule type: double-stranded DNA, one strand shown
Sample: in vitro
Tested at: not given
Setting: 8-mer, flanks averaged, mean of replicates
Reading: higher = stronger binding
Residues (chain): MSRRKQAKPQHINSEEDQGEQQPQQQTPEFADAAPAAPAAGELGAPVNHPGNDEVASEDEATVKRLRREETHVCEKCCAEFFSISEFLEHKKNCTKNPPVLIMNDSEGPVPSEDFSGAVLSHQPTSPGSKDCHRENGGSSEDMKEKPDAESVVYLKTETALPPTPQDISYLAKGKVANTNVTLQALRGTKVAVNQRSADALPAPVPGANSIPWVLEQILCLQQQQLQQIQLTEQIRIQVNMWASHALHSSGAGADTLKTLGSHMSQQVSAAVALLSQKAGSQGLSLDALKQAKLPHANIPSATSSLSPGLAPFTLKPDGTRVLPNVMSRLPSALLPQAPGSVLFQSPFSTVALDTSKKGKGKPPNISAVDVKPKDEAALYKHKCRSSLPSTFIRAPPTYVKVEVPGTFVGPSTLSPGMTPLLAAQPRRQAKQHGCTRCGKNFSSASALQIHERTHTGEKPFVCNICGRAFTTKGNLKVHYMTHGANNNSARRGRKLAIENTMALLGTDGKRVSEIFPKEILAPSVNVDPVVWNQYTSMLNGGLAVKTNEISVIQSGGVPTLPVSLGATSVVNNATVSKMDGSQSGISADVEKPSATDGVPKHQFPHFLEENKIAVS
`ATTCAATA` gave an E-score of 0.387.
The E-score of `TAGTGACA` is reported as 0.133.
`GCATTAAA` has an E-score of 0.313.
The E-score of `CACTACCG` is reported as -0.126.
`TACGTCTA` gave an E-score of 0.168.
`AGATGAGG` has an E-score of -0.105.
With `ACGCTCCG` the E-score was -0.305.
`CCGGAGTC` has an E-score of -0.3.
The E-score of `ACCAAGAC` is reported as -0.00221.
`CGTGTGGA` gave an E-score of -0.259.
For `AAGAGGGA`, the E-score was 0.0508.
For `ACTTATCG`, the E-score was 0.00964.
`CGCAACAG` gave an E-score of -0.0506.
`CACTTACC` gave an E-score of 0.0309.
For `TAAGAACA`, the E-score was 0.246.
The E-score of `GGACGCAA` is reported as -0.174.
With `AAAGCGGG` the E-score was -0.103.
For `TTTTAAAA`, the E-score was 0.288.
With `AGCGCTTA` the E-score was -0.172.
The E-score of `CACCACTC` is reported as -0.0746.
For `GAGAGCTA`, the E-score was -0.0311.
`AATTCTTA` has an E-score of 0.24.
With `TTATCGAA` the E-score was 0.227.
For `CGCTATGA`, the E-score was 0.111.
`TATACCCA` gave an E-score of 0.122.

Sample 4
Target: Histone acetyltransferase KAT6A, winged helix 1, GST fusion (KAT6A, Homo sapiens, UniProt Q92794, residues 1-85)
Technique: protein binding microarray
Molecule type: double-stranded DNA, one strand shown
Sample: in vitro
Tested at: not given
Setting: 8-mer, flanks averaged, mean of 2 arrays, mostly near background
Baseline: not given
Reading: higher = stronger binding
Target sequence (chain): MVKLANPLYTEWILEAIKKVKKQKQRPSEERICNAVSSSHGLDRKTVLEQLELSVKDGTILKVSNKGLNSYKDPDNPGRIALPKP
`ACGCGCGC` gave an E-score of 0.452.
`CGCAGAAG` gave an E-score of 0.0797.
With `ACCGCTGG` the E-score was 0.139.
`CAATTTCA` gave an E-score of -0.177.
With `CAAGCGCC` the E-score was 0.372.
With `ACAGACTC` the E-score was -0.0995.
`TGAAGGAA` gave an E-score of -0.163.
With `GCGTACTA` the E-score was 0.275.
For `GGCGCTTA`, the E-score was 0.347.
With `AAGTGACA` the E-score was -0.0396.
The E-score of `TCATAAGA` is reported as -0.15.
The E-score of `TAGACGGA` is reported as 0.1.
With `CCGCGCCC` the E-score was 0.41.
`GATGTGAA` has an E-score of -0.232.
With `AGCCCTAC` the E-score was 0.0425.
The E-score of `ATGAATGG` is reported as -0.148.
`AGCTGTGA` gave an E-score of -0.18.
With `GAGTAGCA` the E-score was -0.0888.
The E-score of `CGCGCCTC` is reported as 0.36.
`ATTCAAGC` has an E-score of -0.0591.
`GGTTGGCA` gave an E-score of -0.197.
`AAGATCAC` has an E-score of -0.0908.
The E-score of `GTCGAAGA` is reported as -0.0854.
With `CAACAATA` the E-score was -0.117.
`GCTACACA` has an E-score of -0.0362.

A few entries again (sample 3):
`AGATGAGG` has an E-score of -0.105.
With `ACGCTCCG` the E-score was -0.305.
`CCGGAGTC` has an E-score of -0.3.
The E-score of `ACCAAGAC` is reported as -0.00221.
`CGTGTGGA` gave an E-score of -0.259.
For `AAGAGGGA`, the E-score was 0.0508.
For `ACTTATCG`, the E-score was 0.00964.
`CGCAACAG` gave an E-score of -0.0506.
